# Measured values of several laboratories.
# Every numbered part comes from another study and shows a few of its results, in no order. Substitutions count along the parent as printed.

# Study 1 — method: protein-binding microarray; molecule type: double-stranded DNA, one strand shown; sample: in vitro; tested at: 250 nM; setting: 60-bp whole probe; together with: salmon DNA 0.4 mg/ml; baseline: random background probes; direction: higher = stronger binding; all sequences stand within: GCCTAGCAC … GTCTTGATTCGCTTGACGCTGCTG
# Target: Interferon regulatory factor 5, full length, phosphomimetic (IRF5, Homo sapiens, UniProt Q13568-2, residues 1-514, K96S/S451D/S453D/S456D/S462D)
Sequence,log fluorescence [z-score]
TCATCTTTCTGTCAGTTACTGTGCTAG,4.58
TCATTTCTTTCAAATGAAACTGTGCTA,2.03
TTAAGTCTCCTTTTCCTTTAGTGCTAG,0.849
ATAGGTATCCTTATCCTTTAGTGCTAG,0.325
CTAGGTTTCGGACTGGGTTAGTGCTAG,4.44
TTAGAACTGAGACTGTATTAGTGCTAG,0.0284
GACAGTATCGGACTGGGGACGTGCTAG,2.31
GACGGTCTCCTACGGCTGACGTGCTAG,-0.613
GCATCTCGGAGATCTCGAAGCGTGCTA,-0.149
TTAGGTACCCTACTGCTTTAGTGCTAG,-0.44
TTAGGTATCCTTATCCTTTGGTGCTAG,0.09
TTAGGACTGGGTTTCGGTTTGTGCTAG,7.85
GACGCTATCCTTCTCCTGACGTGCTAG,0.237
TTATGTATCCTTATCCTTTAGTGCTAG,0.85
TTACGTATCGGTATCGGTTAGTGCTAG,10
ATAGGACTGGGGACTGGGTTAGTGCTA,-0.422
CACTCTCTGCTTGTGTCTGGGTGCTAG,0.336
GACGGTCTCCTTATCCTGACGTGCTAG,0.01
TTAGATTTCAGTCTCGAATAGTGCTAG,2.44
TTAGAACTGAGTCTGGATTAGTGCTAG,-0.344
TTAGATCCCAGTCTCGATTAGTGCTAG,0.445
GACGATTCCAGTTGCGAGACGTGCTAG,0.236
GACGGACGGGACTTTCGGGACGTGCTA,4.32
TTCGGTCTCCTTTTCCTTTAGTGCTAG,1.43
TCATACATCTATGTAGAACTGTGCTAG,0.443

# Study 2 — method: RNAcompete; molecule type: RNA; sample: in vitro; tested at: 20 nM; setting: 7-mer, probes averaged, single round; baseline: mean of 7-mers; direction: higher = stronger binding
# Target: PABPC1L2, full length, GST fusion (mouse, UniProt A0ABA7IW68)
# Construct (chain): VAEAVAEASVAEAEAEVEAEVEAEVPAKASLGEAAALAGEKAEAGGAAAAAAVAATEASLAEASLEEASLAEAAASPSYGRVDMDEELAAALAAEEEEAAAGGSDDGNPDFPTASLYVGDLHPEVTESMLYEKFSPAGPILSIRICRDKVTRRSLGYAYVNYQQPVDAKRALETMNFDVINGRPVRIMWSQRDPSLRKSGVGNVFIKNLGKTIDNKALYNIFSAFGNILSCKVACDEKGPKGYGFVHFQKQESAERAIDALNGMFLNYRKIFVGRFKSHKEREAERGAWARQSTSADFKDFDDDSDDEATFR
Sequence,7-mer Z-score
CACUGCG,-0.139
CGUUUUC,-0.458
GCGCAUA,0.0134
GCUGGGU,0.0334
GGCGGGG,0.338
ACCAAGA,0.196
CGUUACC,-0.286
ACUAUCU,-0.0917
CCACACG,-0.2
AUGAUCA,-0.00289
CAGCAGG,0.153
UGGGCCG,-0.182
GUUCUGC,-0.284
GAAUGUG,-0.137
ACACUGA,0.0261
CACAGUC,-0.228

# Study 3 — target: CEBPE, bZIP domain (human); method: DHFR protein complementation; sample: yeast; baseline: wild-type JUN-FOS pair; direction: higher = stronger binding
# Setting: single substitutions, most at no-binding floor
# Starting sequence: JUN, bZIP domain (human); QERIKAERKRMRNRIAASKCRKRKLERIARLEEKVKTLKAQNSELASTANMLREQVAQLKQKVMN; partner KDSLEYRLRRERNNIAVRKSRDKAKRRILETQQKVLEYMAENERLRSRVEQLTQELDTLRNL
Variant,binding fitness [natural log]
E33R,-1.22
S43V,-1.17
A49W,-1.33
A57R,-1.24
T37I,-1.11
L31C,-1.34
I28D,-1.37
A40H,-1.19
I28A,-1.24
Q55I,-1.47

# Study 4 — method: protein-binding microarray; molecule type: double-stranded DNA, one strand shown; sample: in vitro; tested at: not given; direction: higher = stronger binding
# Target: Max dimerization protein 1, bHLH-zipper, MAX partner unstated (MXD1, Homo sapiens, UniProt Q05195, residues 56-136)
# Setting: k-mer, scored over probes, only values ≥0.25
# Target sequence (chain): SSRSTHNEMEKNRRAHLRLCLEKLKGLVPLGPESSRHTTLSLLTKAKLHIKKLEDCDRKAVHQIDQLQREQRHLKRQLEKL
Sequence,E-score
AACCACAT,0.33
CTCGTGGC,0.408
CCACGTTC,0.33
CGTGGCAG,0.253
CCGTCCCC,0.273
CCACGCGG,0.469
CAGCATGC,0.417
CCACATGC,0.451
GGCGGGCA,0.274
GCATGGTA,0.43
ACACGTGT,0.489
CGTGGCGA,0.257
ATGACACG,0.283
CATGTGAA,0.369
CCCCTTGC,0.261
ACCACCCC,0.268
GGAACGCA,0.313
CGCACACC,0.262
GCAGAACA,0.298
ATCACGTG,0.48
CCCGCGCC,0.251

# Study 5 — target: CCND3, cyclin fold, Cln2 fusion (human); method: yeast growth competition, sequencing; sample: yeast; setting: weak parent motif; baseline: not given; direction: higher = stronger binding
# Starting sequence: CDC6 docking peptide (human); TLKGRRLVFDNQL; partner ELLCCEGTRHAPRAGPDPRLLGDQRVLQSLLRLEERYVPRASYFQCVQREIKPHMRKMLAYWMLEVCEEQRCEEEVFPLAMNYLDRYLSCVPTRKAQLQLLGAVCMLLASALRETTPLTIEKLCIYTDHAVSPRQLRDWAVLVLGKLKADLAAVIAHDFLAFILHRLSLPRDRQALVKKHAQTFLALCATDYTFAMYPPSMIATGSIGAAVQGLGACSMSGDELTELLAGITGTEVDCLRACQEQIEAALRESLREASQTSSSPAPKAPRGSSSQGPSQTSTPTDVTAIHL
Variant,normalised enrichment score
DLKGRRLVFDNQL [T1D],0.0586
TLKGERLVFDNQL [R5E],0.0498
TLKYRRLVFDNQL [G4Y],0.0484
TLKGTRLVFDNQL [R5T],0.19
TLKGSRLVFDNQL [R5S],0.0383
TLKGRRLEFDNQL [V8E],0.141
TIKGRRLVFDNQL [L2I],0.121
TLKGRRLVPDNQL [F9P],0.186
TLKGRRLVFDNML [Q12M],0.117
TLKGRRLVFDNTL [Q12T],0.147
TLKGRRLVFDNAL [Q12A],0.112
TLKGRRLVFDNKL [Q12K],0.0376
TLKGRRLVWDNQL [F9W],0.195
TMKGRRLVFDNQL [L2M],0.129
RLKGRRLVFDNQL [T1R],0.13
TLKGRRLVFDNQF [L13F],0.127
TLKGRRLVFDSQL [N11S],0.0852
TLKVRRLVFDNQL [G4V],0.132
TLKGRRLVFVNQL [D10V],0.0151
TLKGRRLVFQNQL [D10Q],0.0681
TLKNRRLVFDNQL [G4N],0.0806
TLKGRRLVFDNQW [L13W],0.241
TLKGRRLVFDMQL [N11M],0.0922
TLKGRRLHFDNQL [V8H],0.157
TLKGKRLVFDNQL [R5K],-0.0474

# Study 6 — method: DHFR PCA, deep sequencing; sample: yeast; together with: (+)-ABA 0.39 µM; baseline: wild-type fitted maximum; direction: higher = stronger binding
# Target: ABI1, truncated, D143A, DHFR fusion (Arabidopsis thaliana)
# Setting: methotrexate growth selection, single substitutions
# Starting sequence: PYL1, truncated, DHFR fusion (Arabidopsis thaliana); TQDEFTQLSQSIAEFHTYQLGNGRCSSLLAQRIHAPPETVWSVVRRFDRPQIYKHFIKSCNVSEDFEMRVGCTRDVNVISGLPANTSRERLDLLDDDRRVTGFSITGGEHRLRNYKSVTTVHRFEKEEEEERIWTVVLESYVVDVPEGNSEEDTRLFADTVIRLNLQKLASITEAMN; partner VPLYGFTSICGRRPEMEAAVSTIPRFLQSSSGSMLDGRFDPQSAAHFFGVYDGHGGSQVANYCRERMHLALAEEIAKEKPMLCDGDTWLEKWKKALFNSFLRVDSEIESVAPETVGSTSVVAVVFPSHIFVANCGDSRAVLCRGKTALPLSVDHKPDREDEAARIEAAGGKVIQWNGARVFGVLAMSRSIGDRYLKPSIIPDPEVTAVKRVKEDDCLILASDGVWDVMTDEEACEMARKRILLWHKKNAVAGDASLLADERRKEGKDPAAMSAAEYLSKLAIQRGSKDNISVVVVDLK
Variant,relative binding score [%]
D65W,-7.04
E125K,45.9
S27M,-0.841
F5W,49.7
D75M,47.1
V121M,-9.04
I12Y,-1.21
T1K,42.3
N61Q,60.6
Y141V,-12.7
V118Y,-3.4
D65P,57.7

# Study 7 — method: protein binding microarray; molecule type: double-stranded DNA, one strand shown; sample: in vitro; tested at: not given; baseline: not given; direction: higher = stronger binding
# Target: Histone acetyltransferase KAT6A, winged helix 1, GST fusion (KAT6A, Homo sapiens, UniProt Q92794, residues 1-85)
# Setting: 8-mer, flanks averaged, mean of 2 arrays, mostly near background
# Target sequence (chain): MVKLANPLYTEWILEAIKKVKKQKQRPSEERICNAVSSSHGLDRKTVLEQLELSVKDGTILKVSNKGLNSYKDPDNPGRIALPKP
Sequence,E-score
ATATGTGG,-0.279
TCTTTGCA,-0.246
CAAGATTA,-0.218
CATTTGTA,-0.211
ACTTATGA,-0.24
ACGCACTG,0.0387
ACCCAAGA,-0.272
ACGAGAAC,-0.107
ATAATATC,0.0313
GACTTTGA,-0.137
TCGGAAGA,-0.0385
TGCATGAA,-0.151
CACTGAAG,0.00749
GGATCCGA,0.143
GGAGGAAC,0.00136
CTACGAGC,-0.0567
CAAATGTC,-0.0534
TAGGACTA,-0.0698
CCTTAGGC,-0.0412
AATTTCAC,-0.213
CCTTTAAC,0.0349
AGAGAGAC,-0.163
CGTGCGGA,0.272
CTGGTCCC,-0.176
AGGATCAA,-0.118

# Other studies, line by line
Molecule,target,test,system,setting,scale,measurement,result
"PhoQ, residues 284 288 289 292 302 303 ASASEQ","PhoP, residues 12 14 15 18 19 AWHSL (Escherichia coli, UniProt P23836)","Sort-seq, refers to: YFP reporter",E. coli,"PhoQ-PhoP variant library, together with: 10 µM Mg2+","baseline: high Mg2+ state, higher = stronger signaling",fold induction,1.69
